Measured values collected from several papers.
Each numbered part is a random draw from the data of one study; scales do not carry over between parts.

Series 1 — method: protein binding microarray; molecule type: double-stranded DNA, one strand shown; matrix: in vitro; concentration: not given; relative to: not given; direction: higher = stronger binding
Target: Histone acetyltransferase KAT6A, winged helix 1, GST fusion (KAT6A, Homo sapiens, UniProt Q92794, residues 1-85)
Setting: 8-mer, flanks averaged, mean of 2 arrays, mostly near background
Target sequence (chain): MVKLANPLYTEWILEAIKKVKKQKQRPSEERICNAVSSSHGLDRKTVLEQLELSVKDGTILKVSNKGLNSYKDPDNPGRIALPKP
Oligonucleotide | E-score
AGTGAATA | -0.209
ACACACCC | -0.11
AAAAATTC | -0.198
CAGGTCGC | 0.102

Series 2 — method: protein-binding microarray; molecule type: double-stranded DNA, one strand shown; matrix: in vitro; concentration: 250 nM; setting: 60-bp whole probe; added: salmon DNA 0.4 mg/ml; relative to: random background probes; direction: higher = stronger binding
Target: Interferon regulatory factor 5, full length, phosphomimetic (IRF5, Homo sapiens, UniProt Q13568-2, residues 1-514, K96S/S451D/S453D/S456D/S462D)
Oligonucleotide | log fluorescence
GCCTAGCACTTAGAACTGGGGTTTCGATTGGTGCTAGTCTTGATTCGCTTGACGCTGCTG | 5.17 z-score
GCCTAGCACTTAGGACTGGACACTGGATTAGTGCTAGTCTTGATTCGCTTGACGCTGCTG | -0.353 z-score
GCCTAGCACAAACAAGTTTCACGTCTTATAGTGCTAGTCTTGATTCGCTTGACGCTGCTG | 2.05 z-score
GCCTAGCACGACGGACTGGGGACTGGGTACGTGCTAGTCTTGATTCGCTTGACGCTGCTG | -0.643 z-score

Single results of other studies
Molecule | target | test | test system | setting | scale | endpoint | result
PhoQ, residues 284 288 289 292 302 303 SLSVQF | PhoP, residues 12 14 15 18 19 NQCAL (Escherichia coli, UniProt P23836) | Sort-seq, measured: YFP reporter | E. coli | PhoQ-PhoP variant library, added: 10 µM Mg2+ | relative to: high Mg2+ state, higher = stronger signaling | fold induction | 14.8
GGTTGGTGTGGTTGG (2'F-ANA at 1 3 5 9 10 13 14 15) | Prothrombin, mature alpha-thrombin (F2, Homo sapiens, UniProt P00734) | aptamer microarray, sandwich | DNA with 2'F-ANA, in vitro | 200 nM, whole 15-mer aptamer, many near background, added: Cy3 exosite-II aptamer, 400 nM | higher = stronger binding | mean fluorescence intensity | 48.4 a.u.

For quick reference, copied from above (series 1):
Oligonucleotide | E-score
ACACACCC | -0.11
